Assay results collected from several papers.
Numbered parts are unrelated; each lists some results of a single study. Substitutions count along the parent as printed.

Sample 1
Target: Histone acetyltransferase KAT6A, winged helix 1, GST fusion (KAT6A, Homo sapiens, UniProt Q92794, residues 1-85)
Technique: protein binding microarray
Molecule type: double-stranded DNA, one strand shown
Medium: in vitro
Concentration: not given
Notes: 8-mer, flanks averaged, mean of 2 arrays, mostly near background
Baseline: not given
Direction: higher = stronger binding
Residues (chain): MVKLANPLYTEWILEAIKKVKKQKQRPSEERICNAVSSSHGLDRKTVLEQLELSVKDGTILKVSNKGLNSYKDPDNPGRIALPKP
| Oligonucleotide | E-score |
| --- | --- |
| AGTGCACC | 0.0259 |
| GGTCTTGA | -0.0591 |
| CGTACCTC | -0.0294 |
| CGCTAACC | 0.322 |
| CGCGTTAC | 0.374 |
| ATGTCGGG | 0.218 |
| TCAGAGGA | -0.1 |
| GCAGTATA | -0.0596 |
| CCAGTACA | -0.153 |
| GGGGCTCA | 0.0281 |
| GGGGGCTA | -0.0329 |
| CTCTCAAC | -0.0816 |
| CTGTTATA | -0.0537 |
| CTCAACAA | -0.196 |
| CTGCCGGA | 0.055 |
| GGGGTAGA | -0.133 |
| CAAAAGTA | -0.166 |
| AATAAGCC | -0.00093 |
| GCATTGCC | 0.14 |
| GGAGAGAC | 0.0429 |
| GTGCAAAC | 0.0617 |
| AACGCTGC | 0.022 |

Sample 2
Target: ABI1, truncated, D143A, DHFR fusion (Arabidopsis thaliana)
Technique: DHFR PCA, deep sequencing
Medium: yeast
Notes: methotrexate growth selection, single substitutions
With: (+)-ABA 200 µM
Baseline: wild-type fitted maximum
Direction: higher = stronger binding
Parent: PYL1, truncated, DHFR fusion (Arabidopsis thaliana); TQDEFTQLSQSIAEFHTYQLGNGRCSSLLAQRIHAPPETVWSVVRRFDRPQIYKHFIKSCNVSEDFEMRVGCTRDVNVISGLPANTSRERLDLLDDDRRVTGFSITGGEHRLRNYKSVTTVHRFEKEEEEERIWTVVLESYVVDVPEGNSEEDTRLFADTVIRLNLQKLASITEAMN
| Variant | relative binding score [%] |
| --- | --- |
| I12V | 95.8 |
| R74L | 4.05 |
| D65H | 104 |
| E127H | 100 |
| P50Q | -0.531 |
| S63R | 100 |
| Q19D | 96.3 |
| D92L | 59.4 |
| V44E | 2.49 |
| P50I | 15 |
| S117D | -4.57 |
| K58I | 61.4 |
| A35M | 62.2 |
| F56W | 97.7 |
| N114L | 7.85 |
| T120W | -5.64 |

Sample 3
Target: Sal-like protein 4, full length isoform B (SALL4, Homo sapiens, UniProt Q9UJQ4-2, residues 1-616)
Technique: universal PBM
Molecule type: double-stranded DNA, one strand shown
Medium: in vitro
Concentration: not given
Notes: 8-mer, flanks averaged, mean of replicates
Direction: higher = stronger binding
Target sequence (chain): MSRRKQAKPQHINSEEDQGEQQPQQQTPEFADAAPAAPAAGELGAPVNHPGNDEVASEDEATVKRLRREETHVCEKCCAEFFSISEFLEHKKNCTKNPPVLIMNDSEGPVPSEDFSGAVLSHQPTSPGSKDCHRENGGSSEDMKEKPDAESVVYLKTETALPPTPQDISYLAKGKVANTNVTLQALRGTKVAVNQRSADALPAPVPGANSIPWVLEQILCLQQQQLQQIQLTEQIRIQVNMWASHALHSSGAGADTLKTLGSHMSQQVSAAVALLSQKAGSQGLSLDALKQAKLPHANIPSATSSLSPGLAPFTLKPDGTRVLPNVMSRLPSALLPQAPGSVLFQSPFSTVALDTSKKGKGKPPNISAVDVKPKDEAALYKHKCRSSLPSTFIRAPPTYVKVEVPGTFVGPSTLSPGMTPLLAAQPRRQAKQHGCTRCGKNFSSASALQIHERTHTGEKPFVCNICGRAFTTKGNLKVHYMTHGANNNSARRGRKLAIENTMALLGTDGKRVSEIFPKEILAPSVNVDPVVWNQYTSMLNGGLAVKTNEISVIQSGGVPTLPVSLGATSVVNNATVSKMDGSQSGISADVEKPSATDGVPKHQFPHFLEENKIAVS
| Oligonucleotide | E-score |
| --- | --- |
| AACCTTCA | 0.142 |
| GAGTTGTA | 0.139 |
| TATGCGAA | 0.193 |
| AGCAGATG | -0.188 |
| CGACCCCC | -0.301 |
| GAAGGGAC | -0.135 |
| ATAGGTGA | 0.169 |
| ACTCTCCT | 0.00266 |
| AAATTATC | 0.401 |
| ATCTATGG | -0.133 |
| AGTATGAC | 0.215 |
| GCAAAAGA | -0.0183 |
| CCCATTAA | 0.129 |
| TCCCAGCA | -0.19 |
| GAAGCACC | -0.21 |
| CTACGCAA | 0.0208 |
| GCTTCACC | -0.143 |
| ATTCTGTG | 0.126 |
| ACACCGCA | -0.143 |
| AATATTGG | 0.321 |
| CCATCGAC | -0.103 |
| GGCACCAA | -0.0423 |
| GTAGGTTA | 0.104 |

Sample 4
Target: Ras GTPase-activating protein-binding protein 1, full length (G3BP1, Homo sapiens, UniProt Q13283)
UniProt Q13283, sequence (whole entry, looked up): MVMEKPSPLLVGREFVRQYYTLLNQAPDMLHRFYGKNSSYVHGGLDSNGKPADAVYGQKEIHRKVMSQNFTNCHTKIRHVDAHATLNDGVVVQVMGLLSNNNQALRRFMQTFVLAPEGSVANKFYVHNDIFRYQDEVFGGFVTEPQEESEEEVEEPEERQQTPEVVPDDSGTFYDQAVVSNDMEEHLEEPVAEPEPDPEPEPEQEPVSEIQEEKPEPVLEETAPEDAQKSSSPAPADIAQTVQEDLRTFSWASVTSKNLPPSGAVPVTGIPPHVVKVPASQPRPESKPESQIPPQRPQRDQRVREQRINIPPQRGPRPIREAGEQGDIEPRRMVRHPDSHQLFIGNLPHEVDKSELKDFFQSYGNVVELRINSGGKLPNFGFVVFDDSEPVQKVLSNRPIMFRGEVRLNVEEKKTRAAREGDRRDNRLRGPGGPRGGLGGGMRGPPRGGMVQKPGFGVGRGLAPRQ
Technique: RNA Bind-n-Seq
Molecule type: RNA
Medium: in vitro
Concentration: 200 nM
Notes: whole 134-nt RNA, ends assumed
With: 150 mM LiCl
Baseline: input library
Direction: higher = stronger binding
All molecules: 7-deaza-guanosine replaces G
Shared flanks, not repeated: GGGAGUUCUACAGUCCGACGAUC … UGGAAUUCUCGGGUGUCAAGG
| Oligonucleotide | log2 enrichment |
| --- | --- |
| CCUCAAGUCCUGUGCUACACAUCGUAUGUACCGAAUCGGGGCGGCGGGCGGGGAAAGUAUUAUGUUACGCCGUUCGGAUCUGCACUUCCA | -0.264 |
| CCUCAAGUCCUGUGCUACACAUCGUAUGUACCGAAUCGGGUGGGGUGGGUGGAAAGUAUUAUGUUACGCCGUUCGGAUCUGCACUUCCAG | -0.102 |
| CUCAAGUCCUGUGCUACACAUCGUAUGUACCGAAUCGGAAGGGAAGGGGAAGGAAAGUAUUAUGUUACGCCGUUCGGAUCUGCACUUCCA | -0.168 |
| ACCAUGCAGGUGGGCAUCUUUGGGAAGUGGGGCAAGGGGGGGAUAGGGAGGGGGGUAACACUUUGGGAACAGGUGGUCCCACGUCGUUUC | 0.322 |
| UCAAGUCCUGUGCUACACAUCGUAUGUACCGAAUCGGCCGGGCCGGGGCCGGGGAAAGUAUUAUGUUACGCCGUUCGGAUCUGCACUUCC | 0.0201 |
| CACAGACAACACGCACCCACACAGACACAGAGGGAAGGGGUUGGGAUGGGGACAGGGUGAAAAGCAGGGCGGGGUAGGACCCCAGCCCCU | -0.702 |
| UGGGAGGUGGAUUUUGUUUAUUUUUUUAGCUCCUUUCCAGGGGUGGGAAUUUUUUUUUAAUAUGUGUCAUGAAUAAAGUUGUUUUUGAAA | 0.146 |
| UCUUUAUUUGAGCCAGUCUUGCAAGGUUAACUUCUCACUGGGCCUAGUGUGGUGCCCAGGUUUUUGCCUUGCUUCACUUCUGUCUCUACA | -0.996 |
| CAAGUCCUGUGCUACACAUCGUAUGUACCGAAUCGGAAAAAGGUUUUUGGUUUGGAAAGUAUUAUGUUACGCCGUUCGGAUCUGCACUUC | -2.42 |
| UGGCCCUGGUGGCAUGCGGGGCGGAAGAGGUGGCCUCAUGGAUCGUGGUGGUCCCGGUGGAAUGUUCAGAGGUGGCCGUGGUGGAGACAG | 0.856 |
| GCAGGAAGUAAAAACAAAUGGAAAUGCUUAGGAUAGUGGCAGGGGUGGGGGUUGCUAAGGAAAGGGUGGGAUGGGAGUGGGUAAAGAGUU | -0.0604 |

Sample 5
Target: Interferon regulatory factor 7, full length, phosphomimetic (IRF7, Homo sapiens, UniProt Q92985, residues 1-503, S101K/S471D/S472D/S475D/S476D/S477D/S483D/S484D/S487D)
Technique: protein-binding microarray
Molecule type: double-stranded DNA, one strand shown
Medium: in vitro
Concentration: 250 nM
Notes: 60-bp whole probe
With: salmon DNA 0.4 mg/ml
Baseline: random background probes
Direction: higher = stronger binding
Shared flanks, not repeated: GCCTAGCAC … GTCTTGATTCGCTTGACGCTGCTG
Residues (chain): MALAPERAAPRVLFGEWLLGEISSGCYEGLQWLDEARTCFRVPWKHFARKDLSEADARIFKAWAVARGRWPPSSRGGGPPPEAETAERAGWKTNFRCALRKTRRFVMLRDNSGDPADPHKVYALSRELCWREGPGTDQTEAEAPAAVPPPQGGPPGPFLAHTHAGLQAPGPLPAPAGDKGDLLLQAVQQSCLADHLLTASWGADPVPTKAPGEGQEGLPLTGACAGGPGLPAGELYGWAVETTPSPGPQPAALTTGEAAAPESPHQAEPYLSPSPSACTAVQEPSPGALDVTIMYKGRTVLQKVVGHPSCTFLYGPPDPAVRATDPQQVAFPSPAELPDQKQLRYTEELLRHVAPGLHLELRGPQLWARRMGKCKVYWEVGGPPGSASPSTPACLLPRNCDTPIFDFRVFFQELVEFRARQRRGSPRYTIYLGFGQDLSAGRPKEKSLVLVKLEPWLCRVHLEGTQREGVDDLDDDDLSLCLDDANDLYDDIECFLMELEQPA
| Oligonucleotide | log fluorescence |
| --- | --- |
| ACACTACCTGACTTCAAACTGTGCTAG | 0.167 z-score |
| GACCAACTGAGTTTCGAGACGTGCTAG | 3.64 z-score |
| GACGGACTGCTTTTCCCGACGTGCTAG | 0.464 z-score |
| TTAGGTTTCGACACTGGGTTCGTGCTA | 3.27 z-score |
| TTAGATTTCGGGTACCGATTAGTGCTA | 0.903 z-score |
| GACGATTTCGGGACTGGATACGTGCTA | 0.212 z-score |
| TTTGGTGTCTTTTGTGGAAACGTGCTA | -0.317 z-score |
| GGCGATATCAGTCTCGAGACGTGCTAG | -0.332 z-score |
| AGGGTCATCCATCTGAACCAGTGCTAG | -0.447 z-score |
| TTAGGTCTCGGTATCGATTAGTGCTAG | 3.31 z-score |
| GACGATTTCAGACTGGAGAGGTGCTAG | -0.142 z-score |
| GAAGATCTCAGTCTCGAGACGTGCTAG | 0.3 z-score |
| GTCACTCTCTGGGCTGTGGGTGTGCTA | 0.0476 z-score |
| TTAGGTTTCGGTTCCGATTAGTGCTAG | 12.6 z-score |
| TTAGGACTGGGTATCGGTTTGTGCTAG | 2.98 z-score |
| TCAGATTTCGGGTTTCGATTAGTGCTA | 7.97 z-score |
| TTAAATTTCAGTTCCGATTAGTGCTAG | 2.03 z-score |
| TTAGGTACCGGACTGGGTTAGTGCTAG | 0.124 z-score |
| AACTTTTTTTAATTGAGAAGGTGCTAG | 0.135 z-score |

Some of these lines once more (sample 5):
| Oligonucleotide | log fluorescence |
| --- | --- |
| TCAGATTTCGGGTTTCGATTAGTGCTA | 7.97 z-score |
| AGGGTCATCCATCTGAACCAGTGCTAG | -0.447 z-score |
| GACGATTTCGGGACTGGATACGTGCTA | 0.212 z-score |
| GACGGACTGCTTTTCCCGACGTGCTAG | 0.464 z-score |
| TTAGGTCTCGGTATCGATTAGTGCTAG | 3.31 z-score |
